Published values from different studies.
Compare with care: the assays were run in different laboratories. “And” joins repeats or separate records; there may be more than shown.
CAMK2D: Calcium/calmodulin-dependent protein kinase type II subunit delta (CAMK2D, Homo sapiens, UniProt Q13557)
TDP1: Tyrosyl-DNA phosphodiesterase 1 (TDP1, Homo sapiens, UniProt Q9NUW8)

For `Nc1ncc2c(n1)-c1c([nH]c3ccc(C4=CCOCC4)cc13)CCC2`, the remaining binding was 100% (CAMK2D; binding, competition with immobilised ligand; 1 µM).
`O=C(O)c1ccc(Nc2c(-c3ccccc3)nc3ccc(CON=Cc4cccc(N5CCOCC5)c4)cn23)cc1` (mixture of isomers) gave an inhibition of 72.1% (TDP1; enzyme activity, inhibitor; 100 µM, unpurified compound).
`C=CC(=O)N1Cc2nc(-c3cc(-c4cc(Cl)cnc4Cl)c(F)cc3F)n(-c3ccncn3)c2C1` gave an inhibition of 5.5% (CAMK2D; cell-free assay, inhibitor; 1 µM).
`C=CC(=O)N1CCCC(n2c(=O)c3ncccc3n(Cc3ccc(Oc4ccccc4)cc3)c2=O)C1` (stereo not drawn) has a remaining binding of 100% (CAMK2D; cell-free assay, competition with immobilised ligand; 1 µM).
With `C=CC(=O)Nc1cc(-c2nn(C3CCN(CCNC(=O)[C@H](C)CCC45CC6CC(CC(C6)C4)C5)CC3)c3ncnc(N)c23)ccc1Oc1ccccc1` the inhibition was 11.9% (CAMK2D; inhibitor, KiNativ profiling; biochemical; 2 µM).
With `CNC1C[S+]2CC[S+]3CC[S+](C1)[Ru-4]321([N]=C=S)[n]2c3ccc(OC)cc3c3c4c(c5cc(F)c[n+]1c5c32)C(=O)NC4=O` (stereo not drawn) the remaining binding was 87% (CAMK2D; KinomeScan; 0.1 µM; baseline: untreated).
With `C=CC(=O)Nc1cccc(-c2cnc3[nH]cc(C(=O)NC(C)(C)C)c3n2)c1` the inhibition was 0% and -2% (CAMK2D; kinase activity; 0.1 µM).
`COCC12C(=O)NC3C4(C(OC)CC1O)C1CC5(O)C(OC)C(O)C(OC(C)=O)(C1C5OC(=O)c1ccccc1)C3(O)C(OC)C24` (stereo not drawn) has a remaining activity of 95% and 97% (CAMK2D; kinase activity, inhibitor, ProQinase kinase profiling; 25 µM; baseline: control).
For `COc1cc(Nc2nccc(-c3cnn4nc(OC)ccc34)n2)cc(C(F)(F)F)c1`, the remaining binding was 74% (CAMK2D; binding, competition with immobilised ligand; 1 µM).
`Cc1cnc2nc1Nc1cccc(c1)COC/C=C/COCc1cc(ccc1OCCN1CCOCC1)N2` has a remaining binding of 100% (CAMK2D; binding; 0.1 µM).
For `CCN1CCN(Cc2ccc(C(=O)Nc3ccc(C)c(NCc4cnc5[nH]ccc5c4OC)c3)cc2C(F)(F)F)CC1`, the remaining binding was 100% (CAMK2D; binding, competition with immobilised ligand; 1 µM).
With `N#CCCn1cc(C=NOCc2ccc3nc(-c4ccccc4)c(Nc4ccc(C(=O)O)cc4)n3c2)c(-c2cccc(Br)c2)n1` the inhibition was 4.7% (TDP1; enzyme activity, inhibitor; 100 µM, unpurified compound).
`CNC(=O)C[C@H](Cc1ccc(C#N)cc1)NC(=O)c1cc(-c2ccc(CN[C@H](C)c3ccc(C)cc3)o2)ccc1Cl`: “activity vs control” 98% (CAMK2D; enzyme activity, inhibitor; 1 µM).
`C=CC(=O)N1CCc2ccc(-n3c(=O)ccc4cnc5ccc(-c6cnn(C)c6)cc5c43)cc21` gave a remaining binding of 94% (CAMK2D; KINOMEscan; 1 µM; baseline: DMSO control).
Under “activity vs control”, `O=C(Cc1ccc(OCc2ccccc2)cc1)NC1(C(=O)O)CCN(C(=O)c2ccc(-c3cccc(Cl)c3)cc2)CC1` is recorded as 104% (CAMK2D; enzyme activity, inhibitor; 10 µM).
`Cc1cccc(O[C@H]2CCC[C@@H](C(C)CNCc3ccncc3)C2)c1` (relative stereo) gave an inhibition of 3% (CAMK2D; cell-free assay, inhibitor; 10 µM).
With `NC(=O)[C@@H](O)C[C@H]1CCc2sc3ncnc(O[C@H]4CC[C@H](N5CCOCC5)CC4)c3c21` the inhibition was 31% (CAMK2D; enzyme activity, inhibitor; 10 µM).
`Nc1ncc(-c2cc(-c3cnn(CC(F)(F)F)c3)ncc2F)nc1C(=O)NC1CNCC(F)C1` (stereo not drawn) gave a remaining activity of 88.3% (CAMK2D; enzyme activity; 1 µM; baseline: DMSO control).

For quick reference, copied from above:
For `COc1cc(Nc2nccc(-c3cnn4nc(OC)ccc34)n2)cc(C(F)(F)F)c1`, the remaining binding was 74% (CAMK2D; binding, competition with immobilised ligand; 1 µM).
